Measured values collected from several papers.

| SMILES | assay | system | setting | measurement | result |
| --- | --- | --- | --- | --- | --- |
| COc1ccc(-c2c(-c3ccc(C#N)c(F)c3)nc(N3CCC(N)CC3)n(C)c2=O)cc1F | item: oxygen saturation decreased | human patients | oral, dose not given, dose escalation | patients with serious TEAE | 0% |
| O=C1Nc2cc3[nH]nc(-c4ccncc4)c3cc2CN1Cc1ccccc1 | CTCAE v4.03 | human, relapsed or refractory advanced solid tumours | intravenous, 7.2 mg/kg | patients with subretinal fluid | 0% |
| CN[C@@H](C)C(=O)N[C@H]1CN(S(=O)(=O)c2cccc(S(=O)(=O)N3CC[C@H]4CC[C@@H](C(=O)NC(c5ccccc5)c5ccccc5)N4C(=O)[C@@H](NC(=O)[C@H](C)NC)C3)c2)CC[C@H]2CC[C@@H](C(=O)NC(c3ccccc3)c3ccccc3)N2C1=O |  | human, advanced solid tumours | intravenous, 45 mg weekly, CTCAE version 4.0 | patients with any TRAE | 80% |
| C[C@]1(O)C[C@@](N)(c2ccc(-c3nc4n(c3-c3ccccc3)COc3ccncc3-4)cc2)C1 |  | human, advanced or metastatic solid tumours | 20 mg once daily, phase I dose escalation | patients with Pruritus TEAE | 16.7% |
| C[C@@H]1OC(=O)NN=C1c1ccc(-c2ccc(F)cc2)c(C(F)(F)F)c1 | phase I trial, item: Diarrhoea all grades | human patients | 5 mg once daily | patients with adverse event | 0% |
| Cn1nc(NS(C)(=O)=O)c2c(Cl)ccc(-n3c([C@H](Cc4cc(F)cc(F)c4)NC(=O)Cn4nc(C(F)F)c5c4C(F)(F)[C@@H]4C[C@H]54)nc4nc(OCCC(F)(F)F)ccc4c3=O)c21 | item: total cholesterol grade 1 increase | human | 200 mg once daily, powder in bottle | patients with laboratory abnormality | 0% |
| C=CC(=O)Nc1cc(Nc2nccc(Nc3cc(Cl)c(F)cc3C(C)(C)O)n2)c(OC)cc1N1CC[C@@H](N(C)C)C1 |  | human patients | oral, 200 mg, treatment-emergent adverse events | patients with amylase increased | 12.5% |
| N[C@@H]1c2ccccc2OC12CCN(c1cnc3c(N4CCCc5ncccc54)n[nH]c3n1)CC2 | item: Fatigue | human advanced or metastatic solid tumours | oral, 60 mg once daily, phase Ia pooled cohort | patients with treatment-emergent adverse event | 40% |
| CN(C)C(=O)c1cc2cnc(Nc3ccc(N4CCNCC4)cn3)nc2n1C1CCCC1 | item: Reproductive toxicity, AESI | human, HR+/HER2− advanced breast cancer | oral, dose not given, all grades, CTCAE v4.03 | patients with adverse event | 0% |
| Cn1cncc1-c1c(F)cncc1NC(=O)c1c(N)nn2cc(F)cnc12 |  | human patients | oral, 180 mg once daily, 21 days, 2 weeks on 1 week off | patients with platelet decrease DLT | 0% |
| Cc1cn([C@H]2O[C@@H](CO[P@@](=O)(N[C@@H](C)C(=O)OC(C)C)Oc3ccccc3)[C@H](O)[C@H]2F)c(=O)[nH]c1=O | item: grade 1/2 | human | 10 mg | patients with ALT/AST elevation | 0% |
| COc1ncnn2ccc(-c3cnc4nc(C)n(Cc5nnc([C@@H](C)F)o5)c4c3)c12 |  | human | oral, dose not given, grade 2 | patients with increased blood creatinine | 7.1% |

For quick reference, copied from above:
| SMILES | assay | system | setting | measurement | result |
| --- | --- | --- | --- | --- | --- |
| COc1ncnn2ccc(-c3cnc4nc(C)n(Cc5nnc([C@@H](C)F)o5)c4c3)c12 |  | human | oral, dose not given, grade 2 | patients with increased blood creatinine | 7.1% |
